Measured values pooled from the literature.
Numbered parts are unrelated; each lists some results of a single study. Changes are numbered by the printed parent chain.

Sample 1
Target: RNA binding protein fox-1 homolog 2, RRM domain, GST-SBP tag (RBFOX2, Homo sapiens, UniProt O43251-10, residues 100-194)
Technique: RNA Bind-n-Seq
Molecule type: RNA
Matrix: in vitro
Tested at: 365 nM
Notes: natural RNA segment, single round, ends assumed
Reference: no-protein control
Direction: higher = stronger binding
Quantity: RBNS enrichment (R)
Shared flanks, not repeated: GGGAGUUCUACAGUCCGACGAUC … UGGAAUUCUCGGGUGCCAA
Construct (chain): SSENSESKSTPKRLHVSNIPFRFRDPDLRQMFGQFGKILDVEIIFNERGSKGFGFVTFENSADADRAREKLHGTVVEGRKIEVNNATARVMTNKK
AAUAGGAUAAUAUACUUCCAAUGCCCUCAAGGCUGUGACCUUACAGCCAUUUUACAUAGCACAUCAUUCCUCCUAUAGGGAUGAACUUUUUCCUGGCACGAAAAGUAGCC: 0.589
UCCCAAGAUCCUGGGGAAAGGAGAGACCAUGGUGUGAAUGUAGAGAUGCCACCUCCCUCUCUCUGAGGCAGGCCUGUGGAUGAAGGAGGAGGGUCAGGGCUGGCCUUCCU: 1.1
GGGCUCCAAGCUGCUUGAGGGGGUCAACCUUGGACCAAAGUUGCCUUAAGCCCCAAGUAUAAAAGAGCUUAGGGGAAGGUGUAAGGGCCACAGGCUGGAAGCUGACAGCC: 0.368
UGUAGACCCCAUCUCAGUGUCUUCAGAAGGACUGUGAACAGAGGCAGCGUCUGCCAUGAAACCAGUUCACCGCUCCUCUCCAUGAAUUGACCUUUUCAAUUUUUUUAAAG: 0.464
AUUUCUUUCAGGUCUCAACUGUGGUGUUUUAAGUGCAGGGAAAAGGAACAAUCACAGCUAUGUGUGACUUUCCUUUUCCCACCUCACCUUGAUGUAGGUGUUUCAAGUGA: 0.464
AAAAGUCAGGUACUCUGUUUUGUAAAAGUACUUUUAAAUUGCCUCAGUGAUACAGUAUAAAGAUAAACAGAAAUGCUGAGAUACGCUUAGCACUUGAGUUGUACAACAGA: 0.301
GCCCAUGGGAUAUGUGGUGUAUAUCCUUCCAAAAAAUUAAAACGAAAAUAAAGUAGCUGCGAUUGGGUAUGUGUUUCCUGGGUUAGGGGAAGGACUCUGCCCUAUUGAGG: 1.14
AUUCAUUAACCCUUUGUAUCUUUGAGUGAAAAUUUUACUCAAAAGUUGCAUCUGGAAGUUCGAAGAAAUUACUUGAAAUAAAAAUAAAGAUUUCUAUAUAGAUAAAACCU: 0.719
CAUGAACUAGUUCCAGAUCUGAAGCCCAGGUUAGGCAUGACAUUGCAGCCCCAACCCUACCUCAUCUGUGCUGAAAGACGCUGAAACUGCCUGGGAUGUUUUCGGGAACA: 0.503
CCCCCUCUCCGGAGCGCUUUGUAAUGCCUUAUUCACGUCGAAAACCAGGAGACUCGGGCUUCGUUUCUUCAUGGCAAGUCUUCAGAGUUAAUUUUCUUUAGAUGUGUAAA: 0.475
UGGGCUCCAAAUUAGCUUUACUGAUUGAACAUCCACAGAGAUGGAGGCAUUUAAUACAAAACCAGGAACUCCGAAUCCAUUGCUCUUUCCUCCUUUGCUUUCACUUCUUA: 0.731
UAAGAGGACUCUCCCUGACCAAGGACUAAAAAGCCUUUGGGGAUGCUGGUAUGAUGGACCAGGCAGGCCAGGCAGACGGGAGGAGGGCUGGGAACAAGAGCAGCCCACUC: 0.421

Sample 2
Target: CCND1, cyclin fold, Cln2 fusion (human)
Technique: yeast growth competition, sequencing
Matrix: yeast
Notes: strong parent motif
Reference: not given
Direction: higher = stronger binding
Quantity: normalised enrichment score
Parent: RBL1 docking peptide (human); GSAKRRLFGEDPP
GSAKRRVFGEDPP [L7V]: 1.03
GSAKRRLFGEDPY [P13Y]: 1.11
GSAKRRLFGEDYP [P12Y]: 1.93
GSAKRRLEGEDPP [F8E]: 0.668
GSAKARLFGEDPP [R5A]: 0.512
GSGKRRLFGEDPP [A3G]: 0.197
ESAKRRLFGEDPP [G1E]: 1.76
GSALRRLFGEDPP [K4L]: -0.333
GSAKRRLFGEDPM [P13M]: 1.23
GSAKRRMFGEDPP [L7M]: 0.508
GSACRRLFGEDPP [K4C]: 2.61
GSAKIRLFGEDPP [R5I]: 1.01
GSAKRRLFGEDKP [P12K]: 1.37
NSAKRRLFGEDPP [G1N]: 1.61

Sample 3
Target: TAR DNA-binding protein 43, full length, His tag (TARDBP, Homo sapiens, UniProt Q13148, residues 1-414)
Technique: RNA Bind-n-Seq
Molecule type: RNA
Matrix: in vitro
Tested at: 20 nM
Notes: 6-mer, flanks averaged, single round
With: 150 mM LiCl
Reference: input library
Direction: higher = stronger binding
Quantity: 6-mer enrichment (R)
UUCACG: 0.856
AGUUAC: 0.871
CACCUC: 0.942
CGGGCC: 0.983
AACGGU: 0.864
UUGAAC: 0.927
UGCUGU: 1.12
GCAUGU: 1.18
ACAUUU: 1.01

Sample 4
Target: Interferon regulatory factor 7, full length, phosphomimetic (IRF7, Homo sapiens, UniProt Q92985, residues 1-503, S101K/S471D/S472D/S475D/S476D/S477D/S483D/S484D/S487D)
UniProt Q92985, sequence (whole entry, unmodified, looked up): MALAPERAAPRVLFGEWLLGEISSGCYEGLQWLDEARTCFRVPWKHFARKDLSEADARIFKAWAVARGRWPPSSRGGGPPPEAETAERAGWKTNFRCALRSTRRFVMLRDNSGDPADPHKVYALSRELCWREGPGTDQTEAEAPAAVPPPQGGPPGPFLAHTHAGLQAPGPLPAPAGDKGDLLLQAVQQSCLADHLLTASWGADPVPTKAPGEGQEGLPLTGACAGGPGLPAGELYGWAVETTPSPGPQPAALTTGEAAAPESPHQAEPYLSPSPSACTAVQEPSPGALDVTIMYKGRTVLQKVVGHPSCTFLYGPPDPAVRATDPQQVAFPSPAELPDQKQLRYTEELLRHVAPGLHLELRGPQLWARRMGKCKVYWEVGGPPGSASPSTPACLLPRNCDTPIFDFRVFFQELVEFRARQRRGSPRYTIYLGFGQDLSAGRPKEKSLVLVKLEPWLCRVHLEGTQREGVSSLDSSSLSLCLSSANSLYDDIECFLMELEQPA
Technique: protein-binding microarray
Molecule type: double-stranded DNA, one strand shown
Matrix: in vitro
Tested at: 250 nM
Notes: 60-bp whole probe
With: salmon DNA 0.4 mg/ml
Reference: random background probes
Direction: higher = stronger binding
Quantity: log fluorescence
Shared flanks, not repeated: GCCTAGCAC … GTCTTGATTCGCTTGACGCTGCTG
TTAGATCTCAGGATCGATTAGTGCTAG: 0.426 z-score
TTACATCTCAGTCTCGATTAGTGCTAG: 1.64 z-score
TCATCTATGTCTGTTTTACTGTGCTAG: 0.432 z-score
TTGGGTTCCGGTTTCGGTTAGTGCTAG: 10.4 z-score
TGGACTGCACAAGGGCCAGTGTGCTAG: -0.414 z-score
TCAGTAATGCTTCTGTAACTGTGCTAG: -0.204 z-score
TTAGGTATCCGTATCGGTTAGTGCTAG: 0.617 z-score
ATTTCTTTCTAATTCAAAGTGTGCTAG: 2.25 z-score
CATTGCTTGTGTTTATTGTGGTGCTAG: -0.154 z-score
GTCGGACTGGGGTATCGGGACGTGCTA: -0.283 z-score
TTAGATCGCAGACTGGATTAGTGCTAG: -0.255 z-score
GACGGTCTCCTTCTGCTGACGTGCTAG: 0.15 z-score
GACTGTATCCTTATCCTGACGTGCTAG: 0.29 z-score
TTAGACTTCAGACTGGATTAGTGCTAG: -0.163 z-score
TCATTTTTCTCACCACATACTGTGCTA: 1.15 z-score
TGGTGTCTCTGGCCTGGGTCGGTGCTA: -0.731 z-score
AACGGTTTCGGTCTCGGGACGTGCTAG: 8.5 z-score
TCACTTTCCATTTCTGTTACTGTGCTA: 4.23 z-score
TCTACTTCTCTTTTTGCTTTGTGCTAG: 1.75 z-score
TCACTTTACACACATCATCTTGTGCTA: 1.59 z-score
TTAGGTATCCTTATCCTTTCGTGCTAG: 0.312 z-score
TTAGGACTGGGGTTTCGGTCAGTGCTA: 0.966 z-score
GAGGGACTGGACACTGGGGACGTGCTA: -0.666 z-score
TTAGGTATCCTTCTCCTTAAGTGCTAG: 1 z-score
GGCGGACTGGACTTTCGGGACGTGCTA: -0.463 z-score

Sample 5
Target: PABPC1L2, full length, GST fusion (mouse, UniProt A0ABA7IW68)
Technique: RNAcompete
Molecule type: RNA
Matrix: in vitro
Tested at: 20 nM
Notes: 7-mer, probes averaged, single round
Reference: mean of 7-mers
Direction: higher = stronger binding
Quantity: 7-mer Z-score
Construct (chain): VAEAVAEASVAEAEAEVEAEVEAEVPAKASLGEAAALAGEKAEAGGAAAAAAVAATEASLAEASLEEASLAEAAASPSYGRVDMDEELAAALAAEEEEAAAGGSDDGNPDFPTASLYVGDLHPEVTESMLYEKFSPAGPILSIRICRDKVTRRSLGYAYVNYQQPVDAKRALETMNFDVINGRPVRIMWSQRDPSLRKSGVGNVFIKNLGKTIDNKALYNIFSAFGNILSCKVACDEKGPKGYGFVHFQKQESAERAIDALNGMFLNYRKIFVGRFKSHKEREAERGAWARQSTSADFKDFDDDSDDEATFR
UAAUACA: 0.0968
AUAGACA: 0.00979
GAAUAAU: 0.0533
GGUGAUA: 0.0696
ACACAUC: -0.155
AAGGCCA: 0.113
GGGCGAG: 0.376
GAUCGAA: 0.0551
UCAAUGA: -0.13
CCCUAGG: -0.307
AAUCGUA: -0.00652
CGCCACG: -0.246
AAGUGCU: 0.0388
AACAGUU: 0.283
CCUAGAA: 0.24
GUUACCC: -0.219
GACUGGG: 0.18
AUGACGU: -0.175

For quick reference, copied from above (sample 4):
TGGACTGCACAAGGGCCAGTGTGCTAG: -0.414 z-score
TTACATCTCAGTCTCGATTAGTGCTAG: 1.64 z-score
ATTTCTTTCTAATTCAAAGTGTGCTAG: 2.25 z-score
TTAGGTATCCTTCTCCTTAAGTGCTAG: 1 z-score
TTAGATCGCAGACTGGATTAGTGCTAG: -0.255 z-score
TCACTTTACACACATCATCTTGTGCTA: 1.59 z-score
TCATTTTTCTCACCACATACTGTGCTA: 1.15 z-score
TCATCTATGTCTGTTTTACTGTGCTAG: 0.432 z-score
GACGGTCTCCTTCTGCTGACGTGCTAG: 0.15 z-score
